Published values gathered from unrelated publications.
Several values in a cell are separate wells, animals, samples, runs or records. Numbers after ± are the reported error.
POLL: DNA polymerase lambda (POLL, Homo sapiens, UniProt Q9UGP5)
UniProt Q9UGP5, sequence (whole entry, looked up): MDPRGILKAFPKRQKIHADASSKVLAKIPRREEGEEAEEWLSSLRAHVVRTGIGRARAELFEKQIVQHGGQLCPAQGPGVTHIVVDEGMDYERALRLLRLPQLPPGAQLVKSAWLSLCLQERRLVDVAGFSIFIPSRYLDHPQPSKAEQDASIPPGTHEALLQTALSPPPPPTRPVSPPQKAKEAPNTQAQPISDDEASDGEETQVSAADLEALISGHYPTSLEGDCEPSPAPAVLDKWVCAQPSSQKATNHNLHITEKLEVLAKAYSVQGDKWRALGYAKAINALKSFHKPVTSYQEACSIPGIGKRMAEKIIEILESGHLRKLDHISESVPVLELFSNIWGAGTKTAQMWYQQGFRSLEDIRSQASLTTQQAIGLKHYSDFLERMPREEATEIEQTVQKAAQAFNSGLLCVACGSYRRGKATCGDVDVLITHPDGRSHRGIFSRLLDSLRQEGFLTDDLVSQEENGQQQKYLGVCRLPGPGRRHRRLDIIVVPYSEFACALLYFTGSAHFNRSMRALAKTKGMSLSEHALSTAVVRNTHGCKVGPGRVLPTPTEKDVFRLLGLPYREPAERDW
HDAC6: Protein deacetylase HDAC6 (HDAC6, Homo sapiens, UniProt Q9UBN7)
UniProt Q9UBN7, sequence (whole entry, looked up): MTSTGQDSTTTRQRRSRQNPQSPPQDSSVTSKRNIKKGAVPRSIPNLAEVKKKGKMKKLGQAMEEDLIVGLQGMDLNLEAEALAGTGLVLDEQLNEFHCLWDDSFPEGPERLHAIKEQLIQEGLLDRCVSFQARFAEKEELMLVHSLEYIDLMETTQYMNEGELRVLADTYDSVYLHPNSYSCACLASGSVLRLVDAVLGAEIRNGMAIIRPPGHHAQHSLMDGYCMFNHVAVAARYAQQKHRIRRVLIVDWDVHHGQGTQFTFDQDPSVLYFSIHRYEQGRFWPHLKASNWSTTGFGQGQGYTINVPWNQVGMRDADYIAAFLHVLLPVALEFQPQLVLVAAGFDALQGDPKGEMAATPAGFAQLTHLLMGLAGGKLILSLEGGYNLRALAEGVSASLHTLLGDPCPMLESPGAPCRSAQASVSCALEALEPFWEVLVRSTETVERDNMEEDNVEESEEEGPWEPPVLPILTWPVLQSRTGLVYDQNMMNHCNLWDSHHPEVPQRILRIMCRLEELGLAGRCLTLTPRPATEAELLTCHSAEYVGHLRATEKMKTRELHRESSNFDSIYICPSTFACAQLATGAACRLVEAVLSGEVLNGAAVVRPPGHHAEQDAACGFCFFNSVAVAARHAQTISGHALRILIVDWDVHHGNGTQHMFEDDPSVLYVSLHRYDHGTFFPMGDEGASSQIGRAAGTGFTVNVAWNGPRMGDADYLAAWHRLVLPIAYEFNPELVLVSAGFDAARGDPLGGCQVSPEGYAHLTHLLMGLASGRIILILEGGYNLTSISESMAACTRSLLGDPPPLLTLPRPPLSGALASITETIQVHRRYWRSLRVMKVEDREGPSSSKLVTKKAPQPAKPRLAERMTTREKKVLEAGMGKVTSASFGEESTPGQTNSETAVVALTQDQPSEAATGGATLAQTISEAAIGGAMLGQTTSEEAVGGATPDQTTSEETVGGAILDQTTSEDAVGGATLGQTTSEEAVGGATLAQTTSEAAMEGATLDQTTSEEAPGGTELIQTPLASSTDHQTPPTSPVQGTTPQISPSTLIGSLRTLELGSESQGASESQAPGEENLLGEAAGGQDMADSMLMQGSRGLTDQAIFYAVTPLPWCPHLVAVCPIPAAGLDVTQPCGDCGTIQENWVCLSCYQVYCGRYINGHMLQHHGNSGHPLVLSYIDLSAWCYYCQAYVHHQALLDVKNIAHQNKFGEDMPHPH
CA12: Carbonic anhydrase 12 (CA12, Homo sapiens, UniProt O43570)
UniProt O43570, sequence (whole entry, looked up): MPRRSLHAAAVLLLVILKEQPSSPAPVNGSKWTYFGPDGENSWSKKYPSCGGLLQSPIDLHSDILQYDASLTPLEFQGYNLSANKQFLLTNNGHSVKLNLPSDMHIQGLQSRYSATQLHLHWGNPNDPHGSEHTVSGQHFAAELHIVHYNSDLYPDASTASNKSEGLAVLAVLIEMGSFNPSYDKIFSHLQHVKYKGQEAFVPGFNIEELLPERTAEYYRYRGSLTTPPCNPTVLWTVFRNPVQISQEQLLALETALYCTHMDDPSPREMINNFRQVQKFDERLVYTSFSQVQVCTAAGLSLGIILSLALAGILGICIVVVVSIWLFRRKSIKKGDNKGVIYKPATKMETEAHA
UniProt P04062, sequence (whole entry, unmodified, looked up): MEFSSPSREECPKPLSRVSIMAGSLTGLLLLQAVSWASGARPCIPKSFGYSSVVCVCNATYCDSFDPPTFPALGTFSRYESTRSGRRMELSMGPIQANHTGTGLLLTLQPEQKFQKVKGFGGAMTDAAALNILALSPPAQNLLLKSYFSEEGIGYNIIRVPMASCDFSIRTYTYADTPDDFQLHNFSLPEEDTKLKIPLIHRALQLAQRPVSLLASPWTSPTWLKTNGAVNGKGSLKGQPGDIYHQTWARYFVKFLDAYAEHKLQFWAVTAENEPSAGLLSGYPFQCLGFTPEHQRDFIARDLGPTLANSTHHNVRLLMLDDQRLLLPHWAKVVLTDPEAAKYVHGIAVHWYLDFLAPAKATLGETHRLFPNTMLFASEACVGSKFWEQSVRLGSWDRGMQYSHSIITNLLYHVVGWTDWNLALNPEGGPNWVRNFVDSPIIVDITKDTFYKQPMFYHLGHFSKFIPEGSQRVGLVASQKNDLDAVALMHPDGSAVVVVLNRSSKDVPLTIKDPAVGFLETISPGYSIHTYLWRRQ
UniProt P07478, sequence (whole entry, looked up): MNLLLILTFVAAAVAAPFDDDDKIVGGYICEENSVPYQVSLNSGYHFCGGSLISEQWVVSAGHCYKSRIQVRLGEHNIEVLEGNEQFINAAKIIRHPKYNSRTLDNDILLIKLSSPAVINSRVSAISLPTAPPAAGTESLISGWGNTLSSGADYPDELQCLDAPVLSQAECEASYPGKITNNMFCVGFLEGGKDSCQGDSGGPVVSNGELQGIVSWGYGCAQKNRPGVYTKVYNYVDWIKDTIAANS
UniProt P00797, sequence (whole entry, looked up): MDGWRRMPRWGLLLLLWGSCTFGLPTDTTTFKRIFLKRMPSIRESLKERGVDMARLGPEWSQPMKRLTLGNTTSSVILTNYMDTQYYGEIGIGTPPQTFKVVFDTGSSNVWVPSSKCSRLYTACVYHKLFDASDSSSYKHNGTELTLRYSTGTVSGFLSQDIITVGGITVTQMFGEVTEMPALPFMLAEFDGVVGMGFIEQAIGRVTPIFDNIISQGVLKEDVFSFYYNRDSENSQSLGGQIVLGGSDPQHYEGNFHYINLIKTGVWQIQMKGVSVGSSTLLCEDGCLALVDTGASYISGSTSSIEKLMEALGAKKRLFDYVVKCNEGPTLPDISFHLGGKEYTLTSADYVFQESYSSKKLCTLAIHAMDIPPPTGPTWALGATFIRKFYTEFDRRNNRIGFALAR
UniProt Q9H422, sequence (whole entry, looked up): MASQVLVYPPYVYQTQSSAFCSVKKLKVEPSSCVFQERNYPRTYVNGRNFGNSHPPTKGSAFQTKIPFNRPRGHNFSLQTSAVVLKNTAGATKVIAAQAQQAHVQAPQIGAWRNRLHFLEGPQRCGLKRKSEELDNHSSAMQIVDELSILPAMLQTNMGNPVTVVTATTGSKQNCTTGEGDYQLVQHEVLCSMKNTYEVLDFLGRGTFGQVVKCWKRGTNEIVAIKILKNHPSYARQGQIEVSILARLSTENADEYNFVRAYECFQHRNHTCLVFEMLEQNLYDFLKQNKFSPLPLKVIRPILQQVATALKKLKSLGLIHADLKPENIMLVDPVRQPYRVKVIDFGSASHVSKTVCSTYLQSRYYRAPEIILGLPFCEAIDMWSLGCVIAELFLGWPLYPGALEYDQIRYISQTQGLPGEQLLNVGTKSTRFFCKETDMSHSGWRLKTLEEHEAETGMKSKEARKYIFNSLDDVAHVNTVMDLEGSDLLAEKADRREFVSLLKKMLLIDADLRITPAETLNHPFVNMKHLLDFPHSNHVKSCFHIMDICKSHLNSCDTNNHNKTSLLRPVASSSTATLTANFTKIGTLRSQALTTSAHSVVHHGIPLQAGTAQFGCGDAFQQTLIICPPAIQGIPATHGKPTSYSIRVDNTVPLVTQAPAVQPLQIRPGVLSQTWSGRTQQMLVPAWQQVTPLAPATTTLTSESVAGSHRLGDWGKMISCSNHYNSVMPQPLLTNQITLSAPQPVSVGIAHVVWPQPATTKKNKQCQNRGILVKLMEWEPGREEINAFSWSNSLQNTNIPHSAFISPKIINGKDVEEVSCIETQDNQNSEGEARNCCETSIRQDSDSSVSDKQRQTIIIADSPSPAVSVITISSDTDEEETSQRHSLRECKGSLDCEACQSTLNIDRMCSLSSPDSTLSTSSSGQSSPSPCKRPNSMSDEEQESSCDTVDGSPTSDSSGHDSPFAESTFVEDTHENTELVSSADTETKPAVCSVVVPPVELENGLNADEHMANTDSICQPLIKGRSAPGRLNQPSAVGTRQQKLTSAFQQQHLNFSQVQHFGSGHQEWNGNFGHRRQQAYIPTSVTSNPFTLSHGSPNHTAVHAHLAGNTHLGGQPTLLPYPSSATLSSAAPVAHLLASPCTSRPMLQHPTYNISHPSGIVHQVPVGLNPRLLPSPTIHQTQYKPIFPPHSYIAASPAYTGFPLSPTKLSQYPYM
UniProt P43220, sequence (whole entry, looked up): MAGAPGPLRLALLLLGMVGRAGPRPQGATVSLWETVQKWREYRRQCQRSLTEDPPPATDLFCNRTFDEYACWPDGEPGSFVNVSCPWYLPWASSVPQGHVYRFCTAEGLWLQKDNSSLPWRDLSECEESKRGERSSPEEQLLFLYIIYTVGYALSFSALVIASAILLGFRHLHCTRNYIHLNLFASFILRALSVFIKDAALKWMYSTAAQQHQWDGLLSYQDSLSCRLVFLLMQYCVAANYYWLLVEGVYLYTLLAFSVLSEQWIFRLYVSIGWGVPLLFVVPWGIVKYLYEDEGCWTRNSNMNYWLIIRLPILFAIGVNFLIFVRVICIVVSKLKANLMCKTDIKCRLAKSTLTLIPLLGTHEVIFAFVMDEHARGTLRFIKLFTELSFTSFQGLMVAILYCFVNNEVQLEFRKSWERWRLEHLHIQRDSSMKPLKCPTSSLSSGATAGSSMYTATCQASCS

SMILES	tested on	test	test system	conditions	scale	quantity	result
CNS(=O)(=O)Nc1nccc(Cc2c(C)c3ccc(Oc4ncccc4F)cc3oc2=O)c1F	MDA-MB-175-VII	cell viability, CellTiter-Glo	–	7 days	–	IC50	0.159 µM
CC[C@@H]1NC(=O)[C@H](CCCNC(=N)N)NC(=O)[C@H](NC(=O)C(C)C)CNC(=O)c2cc(F)c(c(F)c2)N=Nc2c(F)cc(cc2F)C(=O)NCCNC1=O	WDR5 (Homo sapiens, UniProt P61964)	binding, inhibitor, competitive fluorescence polarization	–	cis isomer, 520 nm photostationary state	–	Ki	1.52 µM
O=C(NCCCCCCOP(=O)(O)OP(=O)(O)OP(=O)(O)O)OCC1c2ccccc2-c2ccccc21	POLL	enzyme activity, inhibitor, radiometric	–	–	–	Ki	2 µM
C=CC(=O)Nc1cccc(Cn2ncc3cnc(Nc4cnn(CCOC)c4)nc32)c1	EIF2AK1 human	binding, KINOMEscan	–	100 nM	lower = stronger binding	percent of control	85%
Cc1cc(C(C)(C)C)ccc1OS(=O)(=O)Oc1cccc(/C=C/C(=O)NO)c1	HDAC6	enzyme activity, inhibitor, fluorescence	–	–	–	Ki	0.871 µM
COC1CN([C@H]2CC[C@H]([C@@]3(C)Oc4c(Cl)cc(C(=O)NCc5c(SC)cc(C)[nH]c5=O)c(C)c4O3)CC2)C1	–	RNA-seq, refers to: EPN2	human, whole blood	dose not given, 24 h	reference: pretreatment baseline	log2 fold change	1.61
COc1cc(C2C(NC(=O)c3ccc(NC(=O)OC(C)(C)C)cc3)(C(=O)O)C(c3ccc(OC(=O)c4cccs4)c(OC)c3)C2(NC(=O)c2ccc(NC(=O)OC(C)(C)C)cc2)C(=O)O)ccc1OC(=O)c1cccs1 (stereo not shown)	GLP1R (Homo sapiens, UniProt P43220)	ligand displacement in cells, radioligand	–	–	–	Ki	3.16 µM
O=C(NCCOP(=O)(O)OP(=O)(O)OP(=O)(O)O)OCC1c2ccccc2-c2ccccc21	POLL	DNA polymerase activity, inhibitor	–	added: 1 mM Mg2+, poly(dA)/oligo(dT)	–	Ki	5.6 µM
OC[C@H]1[C@@H](O)[C@H](O)[C@@H](O)CN1CCCCCOCc1ccc2ccccc2c1	GBA1 (Homo sapiens, UniProt P04062, R534H)	inhibitor, 4MU-β-D-glucopyranoside	–	added: 4MU-β-D-glucopyranoside	–	IC50	50 µM
O=C(OCCCCOP(=O)(O)OP(=O)(O)OP(=O)(O)O)c1ccccc1	POLL	DNA polymerase activity, inhibitor	–	added: 1 mM Mn2+, poly(dA)/oligo(dT)	–	Ki	1.5 µM
O=[N+]([O-])c1ccc(O[C@@H]2C=C(CO)[C@@H](O)[C@H](O)[C@H]2O)c([N+](=O)[O-])c1	GBA1 (Homo sapiens, UniProt P04062)	mixed-type inhibitor	–	added: resorufin β-glucoside	–	Ki	0.16 ± 0.03 µM
Nc1ncc(-c2cc(-c3cnn(CC(F)(F)F)c3)ncc2F)nc1C(=O)NC1CNCC(F)C1 (stereo not shown)	LIMK2	KINOMEscan	–	1 µM	reference: DMSO control	remaining binding	81%
Cc1nc(-c2c[nH]c(C(=O)Nc3ncccc3O)c2)cs1	Trypsin-2 (Homo sapiens, UniProt P07478)	mixed inhibitor, Z-GPR-pNA substrate	–	–	–	Ki	189 µM and 181 µM
CC(C)c1ccccc1OS(=O)(=O)Oc1cccc(C(=O)NO)c1	HDAC6	enzyme activity, inhibitor, fluorescence	–	–	–	Ki	0.335 µM
Cc1nn(-c2cccc(N)c2)c(=O)c2cnc(Nc3ccc(N4CCNCC4)cc3)nc12	HIPK3 (Homo sapiens, UniProt Q9H422)	enzyme activity, inhibitor	–	–	–	IC50	> 10 µM
CCC1(CC)CC(=O)N(C2c3cc(C(=O)NC4c5ccccc5CC4O)ccc3OC2(C)COC)C(=N)N1 (stereo not shown)	Renin (REN, Homo sapiens, UniProt P00797)	enzyme activity, inhibitor	–	–	–	Ki	0.562 µM
Cc1ncsc1-c1ccc(C(C)NC(=O)C2CC(O)CN2C(=O)C(NC(=O)CCCCCCCCCCN2CCCC(Nc3ncc(Cl)c(Nc4ccccc4S(=O)(=O)C(C)C)n3)C2)C(C)(C)C)cc1 (stereo not shown)	22Rv1	RNA-seq, refers to: SLC33A1 mRNA	–	concentration not given	reference: DMSO	log2 fold change	-1.41
Cc1c(Cl)c(=O)oc2cc(OCCCCCCSC#N)ccc12	CA12	enzyme activity, inhibitor, stopped-flow	–	–	–	Ki	0.0459 µM
CCCCCCCCCCCC(=O)NC1CCOC1=O (stereo not shown)	CA12	enzyme activity, inhibitor, stopped-flow	–	–	–	Ki	12.9 µM
Nc1ncnc2c1ncn2C1OC(CN(CCCC2CNCc3c2ccc(Cl)c3Cl)CCC(N)C(=O)O)C(O)C1O (mixture of isomers)	PNMT (Homo sapiens, UniProt P11086)	inhibitor, radiometric	–	20 min, 30 °C, diastereomeric mixture, added: [3H]SAM	–	Ki	0.0163 ± 0.0015 µM
O=C(NO)c1cccc(OS(=O)(=O)Oc2cccc([N+](=O)[O-])c2)c1	HDAC6	enzyme activity, inhibitor, fluorescence	–	–	–	Ki	0.032 µM
CCCCCCC1CCCC(=O)O1 (stereo not shown)	CA12	enzyme activity, inhibitor, stopped-flow	–	–	–	Ki	6.2 µM

Repeated from above:
SMILES	tested on	test	test system	conditions	scale	quantity	result
Nc1ncnc2c1ncn2C1OC(CN(CCCC2CNCc3c2ccc(Cl)c3Cl)CCC(N)C(=O)O)C(O)C1O (mixture of isomers)	PNMT (Homo sapiens, UniProt P11086)	inhibitor, radiometric	–	20 min, 30 °C, diastereomeric mixture, added: [3H]SAM	–	Ki	0.0163 ± 0.0015 µM
O=C(NO)c1cccc(OS(=O)(=O)Oc2cccc([N+](=O)[O-])c2)c1	HDAC6	enzyme activity, inhibitor, fluorescence	–	–	–	Ki	0.032 µM
